Measured values gathered from unrelated publications.
± marks the error that the study gave. Values after ≈ are worked out from the molar mass of the structure shown.

Compound | assay | test system | conditions | scale | quantity | value
CCCCCCCCCCCCCCCCCC[N+](C)(C)Cc1ccccc1 | ultrafiltration | human serum |  |  | unbound fraction in blood | 0.139
CC(C)C[C@H](NC(=O)CNC(=O)c1cc(Cl)ccc1Cl)B(O)O |  | human, plasma | oral, 4 mg, day 1, alone |  | AUC(0-last) | 0.907 µg·h/mL
CN(C(=O)n1cnc(-c2ccc[n+]([O-])c2)c1)C1CCCCC1 |  | SHRSP rat | oral, 30 mg/kg daily, 45 days, stroke-prone high-salt diet |  | mortality | 43.3%
CC(=O)N[C@H](CCCCNC(=O)C(C)F)C(=O)N[C@@H](CS)C(=O)N[C@@H](CS)C(=O)N[C@@H](CCC(=O)O)C(=O)N[C@@H](Cc1c[nH]cn1)C(=O)N[C@H](Cc1ccccc1)C(=O)N[C@@H](CCCNC(=N)N)C(=O)N[C@@H](Cc1c[nH]c2ccccc12)C(=O)N[C@@H](CS)C(=O)N[C@@H](CCCNC(=N)N)C(=O)N1CCC[C@H]1C(=O)N[C@H](C(N)=O)C(C)C (stereo partly drawn) [fluorine-18 labelled] |  | C57BL/6 mice, male, B16-F10 tumour, spleen | intravenous, 4 h |  | tissue uptake | 0.2 ± 0.04 %ID/g
[123I]c1cncc(OC[C@@H]2CCN2)c1 | SPECT | human, hippocampus | intravenous bolus, 9.1 mCi | relative to: tissue over plasma | tissue/plasma ratio | 16.6
N#Cc1ccc(N2N=C3c4ccc(C(=O)N5CCC(O)CC5)nc4CC[C@@H]3[C@@H]2C2CCCC2)cc1Cl |  | human | oral, dose not given, with: itraconazole | relative to: without itraconazole | oral clearance reduction | 51%
NC(=O)c1nc(F)c[nH]c1=O | UV-Vis spectrophotometry | supercritical CO2 | 120 min, 308 K, 24 MPa, 895.54 kg/m^3 |  | solubility | 1100 µg/mL (≈ 6.97 mM)
CN[C@@](C)(C[18F])C(=O)O |  | SCID mouse A549 xenograft, spleen | 60 min, post injection |  | tissue uptake | 12 ± 1.9 %ID/g
Cc1cc(C(C#N)c2ccc(Cl)cc2)c(Cl)cc1NC(=O)c1cc(I)cc(I)c1O (stereo not drawn) |  | parasitized lambs, plasma | oral, 10 mg/kg, with: moxidectin 0.2 mg/kg oral |  | AUC(0-LOQ) | 28600 ± 4820 µg·h/mL
C=C1CC[C@@H]2[C@](C)(CO)[C@H](O)CC[C@@]2(C)[C@@H]1C/C=C1/C(=O)OC[C@H]1O | HPLC |  | pH 7.4 |  | chromatographic logD | 1.4
Cc1cc2c(s1)Nc1ccccc1N=C2N1CCN(C)CC1 |  | pregnant SWV mice | oral, 16.05 mg/kg, GD 0, dosed GD 4 to 17 |  | maternal body weight | 27.8 ± 2.7 g
CSCC[C@@H]1NC(=O)[C@H](CC(=O)O)NC(=O)CNC(=O)[C@H](CCCNC(=N)N)NC(=O)[C@H](C)NC(=O)[C@H](CCC(=O)O)NC(=O)[C@H](CCCNC(=N)N)NC(=O)[C@@H]2CSSC[C@@H]3NC(=O)[C@H](CO)NC(=O)[C@H]([C@@H](C)O)NC(=O)[C@@H]4CCCN4C(=O)[C@H](C)NC(=O)[C@H](Cc4c[nH]c5ccccc45)NC(=O)[C@H](CC(=O)O)NC(=O)CNC(=O)[C@H](CCCNC(=N)N)NC(=O)CNC(=O)[C@H](CCC(N)=O)NC(=O)[C@@H]4CCCN4C(=O)[C@@H](NC(=O)CNC(=O)C(C)F)CSSC[C@H](NC(=O)CNC(=O)[C@H](C)NC(=O)[C@H](CC(C)C)NC(=O)[C@H](CSSC[C@@H](C(=O)NCC(N)=O)NC(=O)[C@H]([C@@H](C)O)NC(=O)[C@H](CCCNC(=N)N)NC(=O)[C@@H]4CCCN4C1=O)NC(=O)[C@H](CC(=O)O)NC(=O)[C@H](CO)NC(=O)[C@H](CC(=O)O)NC(=O)[C@H](CCC(N)=O)NC(=O)[C@H](CO)NC3=O)C(=O)N[C@@H](C(C)C)C(=O)N2 (stereo partly drawn) [fluorine-18 labelled] |  | nude mice U-87 MG xenograft, pancreas | intravenous, 0.5 h |  | tissue uptake | 0.32 ± 0.13 %ID/g

Excerpt of the above:
Compound | assay | test system | conditions | scale | quantity | value
NC(=O)c1nc(F)c[nH]c1=O | UV-Vis spectrophotometry | supercritical CO2 | 120 min, 308 K, 24 MPa, 895.54 kg/m^3 |  | solubility | 1100 µg/mL (≈ 6.97 mM)
